Results gathered from unrelated publications.
Numbered parts are unrelated; each lists some results of a single study. Several values in a cell are separate wells, animals, samples, runs or records.
Chain of UniProt P37173 (whole entry, looked up): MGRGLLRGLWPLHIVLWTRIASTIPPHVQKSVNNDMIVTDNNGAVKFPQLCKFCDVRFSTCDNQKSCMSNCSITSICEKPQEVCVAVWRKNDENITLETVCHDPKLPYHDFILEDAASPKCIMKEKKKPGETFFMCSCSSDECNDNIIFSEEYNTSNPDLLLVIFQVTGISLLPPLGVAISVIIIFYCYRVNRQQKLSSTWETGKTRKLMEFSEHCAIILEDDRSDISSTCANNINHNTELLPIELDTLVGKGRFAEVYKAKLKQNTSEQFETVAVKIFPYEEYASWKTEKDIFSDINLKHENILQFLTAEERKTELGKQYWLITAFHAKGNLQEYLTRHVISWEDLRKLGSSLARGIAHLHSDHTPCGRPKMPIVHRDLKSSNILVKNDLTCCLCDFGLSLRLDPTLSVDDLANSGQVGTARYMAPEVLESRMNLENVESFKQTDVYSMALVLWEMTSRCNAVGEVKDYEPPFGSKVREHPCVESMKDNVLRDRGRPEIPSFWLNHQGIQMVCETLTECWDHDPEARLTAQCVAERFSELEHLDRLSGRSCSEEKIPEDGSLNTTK
Chain of UniProt P11802 (whole entry, looked up): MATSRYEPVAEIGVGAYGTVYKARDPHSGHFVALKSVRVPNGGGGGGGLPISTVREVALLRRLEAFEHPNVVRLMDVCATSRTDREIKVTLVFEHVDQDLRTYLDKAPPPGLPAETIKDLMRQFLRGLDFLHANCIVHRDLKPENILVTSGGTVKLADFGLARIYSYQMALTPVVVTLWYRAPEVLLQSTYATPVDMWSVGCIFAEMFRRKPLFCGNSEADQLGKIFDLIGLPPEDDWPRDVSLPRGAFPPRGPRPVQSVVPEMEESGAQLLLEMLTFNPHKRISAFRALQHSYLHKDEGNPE
Chain of UniProt Q15831 (whole entry, looked up): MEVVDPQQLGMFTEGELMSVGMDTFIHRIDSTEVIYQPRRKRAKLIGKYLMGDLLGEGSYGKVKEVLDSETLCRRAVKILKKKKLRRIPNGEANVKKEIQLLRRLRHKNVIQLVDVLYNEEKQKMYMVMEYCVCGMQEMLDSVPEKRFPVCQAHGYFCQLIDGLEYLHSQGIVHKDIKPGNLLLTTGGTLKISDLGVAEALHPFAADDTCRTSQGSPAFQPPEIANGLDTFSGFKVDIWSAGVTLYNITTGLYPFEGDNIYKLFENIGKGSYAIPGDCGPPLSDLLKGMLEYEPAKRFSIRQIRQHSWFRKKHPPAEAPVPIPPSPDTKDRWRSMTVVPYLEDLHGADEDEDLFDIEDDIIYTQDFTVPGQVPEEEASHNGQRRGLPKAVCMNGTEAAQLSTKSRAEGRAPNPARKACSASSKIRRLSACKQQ
Chain of UniProt Q9NQU5 (whole entry, looked up): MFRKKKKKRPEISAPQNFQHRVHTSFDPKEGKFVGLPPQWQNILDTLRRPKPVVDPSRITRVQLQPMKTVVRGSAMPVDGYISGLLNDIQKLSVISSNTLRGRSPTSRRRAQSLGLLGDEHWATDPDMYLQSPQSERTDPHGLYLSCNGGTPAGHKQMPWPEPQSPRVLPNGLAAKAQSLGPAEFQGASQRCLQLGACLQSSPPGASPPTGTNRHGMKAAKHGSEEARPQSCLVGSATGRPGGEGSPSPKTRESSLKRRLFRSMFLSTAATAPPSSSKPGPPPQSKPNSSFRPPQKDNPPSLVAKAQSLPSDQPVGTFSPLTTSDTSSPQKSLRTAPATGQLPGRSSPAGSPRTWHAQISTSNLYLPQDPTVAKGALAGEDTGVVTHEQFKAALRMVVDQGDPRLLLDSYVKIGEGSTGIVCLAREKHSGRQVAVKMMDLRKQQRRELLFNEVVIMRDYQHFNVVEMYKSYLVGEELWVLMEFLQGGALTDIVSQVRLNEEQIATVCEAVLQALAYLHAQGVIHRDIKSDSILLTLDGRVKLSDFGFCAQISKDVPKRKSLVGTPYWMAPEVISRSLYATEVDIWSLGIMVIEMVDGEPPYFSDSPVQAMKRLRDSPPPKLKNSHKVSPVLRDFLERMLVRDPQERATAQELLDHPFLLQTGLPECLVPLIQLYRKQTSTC
Chain of UniProt O94804 (whole entry, looked up): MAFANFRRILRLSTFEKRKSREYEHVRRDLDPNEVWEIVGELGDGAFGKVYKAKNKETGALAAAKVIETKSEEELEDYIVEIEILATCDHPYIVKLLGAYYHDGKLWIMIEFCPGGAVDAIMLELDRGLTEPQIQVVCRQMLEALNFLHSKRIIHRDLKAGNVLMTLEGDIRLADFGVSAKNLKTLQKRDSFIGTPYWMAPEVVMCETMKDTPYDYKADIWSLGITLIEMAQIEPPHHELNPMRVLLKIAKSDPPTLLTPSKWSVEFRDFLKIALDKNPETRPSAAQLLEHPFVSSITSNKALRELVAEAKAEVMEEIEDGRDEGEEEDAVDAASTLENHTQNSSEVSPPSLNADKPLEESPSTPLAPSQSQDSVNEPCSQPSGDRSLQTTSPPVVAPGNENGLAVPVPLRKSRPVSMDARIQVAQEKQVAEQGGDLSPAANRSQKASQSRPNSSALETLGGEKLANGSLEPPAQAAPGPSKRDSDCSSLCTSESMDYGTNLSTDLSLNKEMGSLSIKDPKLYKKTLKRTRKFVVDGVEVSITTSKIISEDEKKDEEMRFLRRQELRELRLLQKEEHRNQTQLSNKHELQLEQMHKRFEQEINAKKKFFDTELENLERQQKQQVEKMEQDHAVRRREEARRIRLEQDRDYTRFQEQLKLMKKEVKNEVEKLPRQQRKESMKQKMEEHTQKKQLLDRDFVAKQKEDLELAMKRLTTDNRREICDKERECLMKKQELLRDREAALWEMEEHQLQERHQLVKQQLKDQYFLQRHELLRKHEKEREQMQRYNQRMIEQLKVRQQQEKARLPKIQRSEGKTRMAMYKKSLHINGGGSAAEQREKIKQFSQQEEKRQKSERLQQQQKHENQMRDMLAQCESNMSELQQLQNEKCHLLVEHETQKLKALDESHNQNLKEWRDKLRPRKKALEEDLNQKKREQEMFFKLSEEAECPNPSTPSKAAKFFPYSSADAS
Chain of UniProt Q9P1W9 (whole entry, looked up): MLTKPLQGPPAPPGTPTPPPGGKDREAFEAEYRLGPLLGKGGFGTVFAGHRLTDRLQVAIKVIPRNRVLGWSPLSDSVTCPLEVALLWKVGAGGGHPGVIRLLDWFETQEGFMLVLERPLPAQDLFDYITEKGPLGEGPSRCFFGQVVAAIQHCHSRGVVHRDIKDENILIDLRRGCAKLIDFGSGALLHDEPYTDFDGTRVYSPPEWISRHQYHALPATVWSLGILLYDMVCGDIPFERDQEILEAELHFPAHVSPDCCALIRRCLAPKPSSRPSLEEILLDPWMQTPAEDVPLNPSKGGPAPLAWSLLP
Chain of UniProt P53355 (whole entry, looked up): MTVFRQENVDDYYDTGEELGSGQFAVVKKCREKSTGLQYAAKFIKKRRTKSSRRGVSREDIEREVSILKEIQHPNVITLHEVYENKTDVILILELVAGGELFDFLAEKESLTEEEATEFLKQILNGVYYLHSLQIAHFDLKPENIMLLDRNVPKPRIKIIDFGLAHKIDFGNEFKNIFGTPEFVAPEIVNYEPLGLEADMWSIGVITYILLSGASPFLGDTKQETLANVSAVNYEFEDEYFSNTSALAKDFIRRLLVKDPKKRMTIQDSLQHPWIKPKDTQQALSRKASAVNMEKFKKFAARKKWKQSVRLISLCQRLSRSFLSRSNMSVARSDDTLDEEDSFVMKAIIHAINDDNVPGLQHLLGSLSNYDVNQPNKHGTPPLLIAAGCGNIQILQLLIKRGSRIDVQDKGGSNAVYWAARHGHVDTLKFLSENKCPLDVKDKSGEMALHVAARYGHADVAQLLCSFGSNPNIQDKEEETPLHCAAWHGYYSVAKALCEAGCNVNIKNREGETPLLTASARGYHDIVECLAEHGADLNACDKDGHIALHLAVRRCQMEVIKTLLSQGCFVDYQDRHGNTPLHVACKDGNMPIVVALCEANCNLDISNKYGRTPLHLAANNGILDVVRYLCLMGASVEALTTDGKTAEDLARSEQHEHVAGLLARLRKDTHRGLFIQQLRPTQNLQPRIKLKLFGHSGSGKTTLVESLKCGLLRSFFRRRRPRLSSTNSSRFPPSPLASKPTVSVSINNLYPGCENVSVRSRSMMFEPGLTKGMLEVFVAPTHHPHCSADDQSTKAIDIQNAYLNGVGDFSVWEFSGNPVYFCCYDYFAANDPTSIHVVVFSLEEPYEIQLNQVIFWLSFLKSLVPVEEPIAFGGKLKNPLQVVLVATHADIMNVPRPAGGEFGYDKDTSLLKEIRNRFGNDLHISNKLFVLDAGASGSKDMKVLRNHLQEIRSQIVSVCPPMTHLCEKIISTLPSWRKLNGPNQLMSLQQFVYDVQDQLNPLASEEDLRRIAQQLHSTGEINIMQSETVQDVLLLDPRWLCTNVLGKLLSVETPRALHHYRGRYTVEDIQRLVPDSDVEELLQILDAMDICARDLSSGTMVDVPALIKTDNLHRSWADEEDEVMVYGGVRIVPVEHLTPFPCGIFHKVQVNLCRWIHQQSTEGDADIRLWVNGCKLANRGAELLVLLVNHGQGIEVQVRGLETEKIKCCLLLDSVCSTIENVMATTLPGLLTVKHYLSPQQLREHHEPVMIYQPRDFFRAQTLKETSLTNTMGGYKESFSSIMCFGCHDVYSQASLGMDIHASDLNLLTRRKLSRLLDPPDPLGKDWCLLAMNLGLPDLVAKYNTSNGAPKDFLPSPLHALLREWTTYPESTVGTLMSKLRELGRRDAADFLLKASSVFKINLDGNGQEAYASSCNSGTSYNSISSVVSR
Chain of UniProt Q00535 (whole entry, looked up): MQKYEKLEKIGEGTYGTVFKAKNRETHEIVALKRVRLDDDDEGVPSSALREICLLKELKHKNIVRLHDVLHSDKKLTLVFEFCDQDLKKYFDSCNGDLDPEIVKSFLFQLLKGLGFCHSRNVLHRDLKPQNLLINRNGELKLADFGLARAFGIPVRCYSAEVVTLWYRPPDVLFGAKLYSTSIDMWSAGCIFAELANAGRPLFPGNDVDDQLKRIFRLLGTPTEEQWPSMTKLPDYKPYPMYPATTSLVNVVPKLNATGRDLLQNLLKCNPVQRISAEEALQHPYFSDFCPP

Sample 1
SMILES: COc1cc(-c2cn(C3CCc4ccccc4N(CC(F)(F)F)C3=O)nn2)ccc1-n1ccc(C)n1 (centres unmarked)
Method: competition with immobilised ligand
Concentration: 1 µM
For CDK16 (Homo sapiens, UniProt Q00536); cell-free assay: remaining binding read 81%.
It gave 100% for remaining binding (RPS6KB1 (Homo sapiens, UniProt P23443); cell-free assay).
For Cyclin-dependent kinase 4, with cyclin D1 (CDK4, Homo sapiens, UniProt P11802); cell-free assay: remaining binding read 90%.
It gave 80% for remaining binding (Tyrosine-protein kinase JAK1, JH1 (JAK1, Homo sapiens, UniProt P23458); cell-free assay).
Ribosomal protein S6 kinase alpha-1, C-terminal kinase domain (RPS6KA1, Homo sapiens, UniProt Q15418); cell-free assay — remaining binding: 95%.
BTK (Homo sapiens, UniProt Q06187); cell-free assay — remaining binding: 82%.
For PRKAA2 (Homo sapiens, UniProt P54646); cell-free assay: remaining binding read 71%.
It gave 100% for remaining binding (PIM2 (Homo sapiens, UniProt Q9P1W9); cell-free assay).
The remaining binding was 100% (TGFBR2 (Homo sapiens, UniProt P37173); cell-free assay).
For MAPK10 (Homo sapiens, UniProt P53779); cell-free assay: remaining binding read 61%.
The remaining binding was 88% (MAPK13 (Homo sapiens, UniProt O15264); cell-free assay).
The remaining binding was 96% (Tyrosine-protein kinase ABL1, phosphorylated (ABL1, Homo sapiens, UniProt P00519, E255K); binding).
It gave 95% for remaining binding (EPHA3 (Homo sapiens, UniProt P29320); cell-free assay).
For CASK (Homo sapiens, UniProt O14936); cell-free assay: remaining binding read 80%.
MAP2K5 (Homo sapiens, UniProt Q13163); cell-free assay — remaining binding: 74%.
For NEK1 (Homo sapiens, UniProt Q96PY6); cell-free assay: remaining binding read 100%.
The remaining binding was 100% (PHKG2 (Homo sapiens, UniProt P15735); cell-free assay).
It gave 94% for remaining binding (FYN (Homo sapiens, UniProt P06241); cell-free assay).
The remaining binding was 69% (PIK3CA (Homo sapiens, UniProt P42336); cell-free assay).
It gave 100% for remaining binding (ROS1 (Homo sapiens, UniProt P08922); cell-free assay).
GRK4 (Homo sapiens, UniProt P32298); cell-free assay — remaining binding: 100%.
It gave 87% for remaining binding (WNK2 (Homo sapiens, UniProt Q9Y3S1); cell-free assay).
The remaining binding was 100% (MINK1 (Homo sapiens, UniProt Q8N4C8); cell-free assay).
It gave 100% for remaining binding (PAK6 (Homo sapiens, UniProt Q9NQU5); cell-free assay).
It gave 92% for remaining binding (SIK3 (Homo sapiens, UniProt Q9Y2K2); cell-free assay).

Sample 2
SMILES: Nc1ncnc2c1cnn2-c1ccccc1
Observed: enzyme activity
Mode: inhibitor
Concentration: 0.5 µM
Baseline: control
It gave 96.7% for remaining activity (DAPK2 (Homo sapiens, UniProt Q9UIK4)).
The remaining activity was 95.4% (STK10 (Homo sapiens, UniProt O94804)).
For cGMP-dependent protein kinase 1, isoform beta (PRKG1, Homo sapiens, UniProt Q13976): remaining activity read 107%.
Cyclin-dependent kinase 4, with cyclin D1 (CDK4, Homo sapiens, UniProt P11802) — remaining activity: 103%.
It gave 97.3% for remaining activity (IKBKB (Homo sapiens, UniProt O14920)).
The remaining activity was 88.2% (MAPK9 (Homo sapiens, UniProt P45984)).
The remaining activity was 94.7% (CAMK2D (Homo sapiens, UniProt Q13557)).
The remaining activity was 99.7% (Tyrosine-protein kinase Lyn, isoform B (LYN, Homo sapiens, UniProt P07948)).
It gave 98.5% for remaining activity (DAPK1 (Homo sapiens, UniProt P53355)).
GRK3 (Homo sapiens, UniProt P35626) — remaining activity: 105%.
It gave 105% for remaining activity (TGFBR2 (Homo sapiens, UniProt P37173)).
It gave 93.9% for remaining activity (STK11 (Homo sapiens, UniProt Q15831)).
For STK39 (Homo sapiens, UniProt Q9UEW8): remaining activity read 107%.
The remaining activity was 99.6% (TGFBR1 (Homo sapiens, UniProt P36897)).
The remaining activity was 95.5% (MAP3K3 (Homo sapiens, UniProt Q99759)).
The remaining activity was 92.6% (OXSR1 (Homo sapiens, UniProt O95747)).
For IKBKE (Homo sapiens, UniProt Q14164): remaining activity read 100%.
Protein kinase C beta type, isoform beta-I (PRKCB, Homo sapiens, UniProt P05771) — remaining activity: 95.2%.
For CAMKK2 (Homo sapiens, UniProt Q96RR4): remaining activity read 86.8%.
NEK2 (Homo sapiens, UniProt P51955) — remaining activity: 98.8%.
The remaining activity was 95.5% (CHEK2 (Homo sapiens, UniProt O96017)).
The remaining activity was 102% (Cyclin-dependent kinase 5, with p25 (CDK5, Homo sapiens, UniProt Q00535)).
PRKCA (Homo sapiens, UniProt P17252) — remaining activity: 103%.

Sample 3
SMILES: CC(=O)N[C@@H](Cc1c[nH]c2ccccc12)C(=O)N[C@@H](CCC(=O)C=[N+]=[N-])C(=O)OC(C)C
Host: C57BL/6 CES1-/- mice, MC-38 tumour
Dose: dose not given
With: anti-PD-1
Baseline: initial
The body weight was 91.2% and 99.1% and 98% and 92.1% and 95.7% and 95.9% and 98.7% (day 35 after inoculation).
For day 61 after inoculation: body weight read 91.9% and 92.2% and 103% and 102% and 107%.
For day 13 after inoculation: body weight read 101% and 96.7% and 96.3% and 97.9% and 102% and 98.1% and 97.2%.
It gave 96.7% and 95.9% and 101% and 97.5% and 98.1% and 99.1% for body weight (day 16 after inoculation).
day 66 after inoculation — body weight: 106% and 100% and 101%.
The body weight was 97.8% and 95.2% and 96.2% and 98.2% and 100% and 95.4% and 101% (day 20 after inoculation).
For day 42 after inoculation: body weight read 96.4% and 95.9% and 99.3% and 93% and 97.2% and 102%.
For day 34 after inoculation: body weight read 97% and 92.4% and 100% and 91.8% and 98.2% and 97.7% and 98%.

Sample 4
Target: Diamine acetyltransferase 1 (Homo sapiens, UniProt P21673)
Mode: inhibitor
Concentration: 10 µM
Baseline: control
Residues (P21673 1-171): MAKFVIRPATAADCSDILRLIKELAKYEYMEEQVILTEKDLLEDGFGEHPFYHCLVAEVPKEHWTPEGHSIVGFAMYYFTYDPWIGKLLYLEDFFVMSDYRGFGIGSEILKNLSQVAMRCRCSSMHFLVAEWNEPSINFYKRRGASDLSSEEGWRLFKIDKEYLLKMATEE
`O=C[C@H](O)[C@@H](O)[C@H](O[C@H]1O[C@H](CO)[C@@H](O[C@H]2O[C@H](CO)[C@@H](O[C@H]3O[C@H](CO)[C@@H](O[C@H]4O[C@H](CO)[C@@H](O[C@H]5O[C@H](CO)[C@@H](O[C@H]6O[C@H](CO)[C@@H](O)[C@H](O)[C@H]6O)[C@H](O)[C@H]5O)[C@H](O)[C@H]4O)[C@H](O)[C@H]3O)[C@H](O)[C@H]2O)[C@H](O)[C@H]1O)[C@H](O)CO` has a remaining activity of 97.3%.
`OC[C@@H](O)[C@@H](O)[C@@H](O)[C@@H](O)CO` has a remaining activity of 93.2%.
For `O=C(/C=C/c1ccc(O)c(O)c1)O[C@@H]1CC(C(=O)O)=C[C@@H](O)[C@H]1O`, the remaining activity was 87.6%.
With `C[C@@H]1O[C@@H](O[C@@H]2C(=O)c3c(O)cc(O)cc3O[C@H]2c2cc(O)cc(O)c2)[C@H](O)[C@H](O)[C@H]1O` the remaining activity was 104%.
`C=C(C)[C@@H]1CC=C2C(=CC[C@]3(C)[C@@H]([C@@H](CCC=C(C)C)C(=O)O)[C@H](O)C[C@@]23C)[C@@]1(C)CCC(=O)O` has a remaining activity of 97.6%.
The remaining activity of `CCCCCCCCCCCCCCCCCCCCCCCCCCCCC` is reported as 100%.
